Results gathered from unrelated publications.
A part holds a random share of what one study measured.

Sample 1
Target: RING finger protein unkempt homolog, zinc fingers 1-6, GST-SBP tag (UNK, Homo sapiens, UniProt Q9C0B0, residues 30-357)
Method: RNA Bind-n-Seq
Form: RNA
Medium: in vitro
Tested at: not given
Setting: RNA with constant flanks, ends assumed
Baseline: input RNA pool
Reading: higher = stronger binding
Residues (chain): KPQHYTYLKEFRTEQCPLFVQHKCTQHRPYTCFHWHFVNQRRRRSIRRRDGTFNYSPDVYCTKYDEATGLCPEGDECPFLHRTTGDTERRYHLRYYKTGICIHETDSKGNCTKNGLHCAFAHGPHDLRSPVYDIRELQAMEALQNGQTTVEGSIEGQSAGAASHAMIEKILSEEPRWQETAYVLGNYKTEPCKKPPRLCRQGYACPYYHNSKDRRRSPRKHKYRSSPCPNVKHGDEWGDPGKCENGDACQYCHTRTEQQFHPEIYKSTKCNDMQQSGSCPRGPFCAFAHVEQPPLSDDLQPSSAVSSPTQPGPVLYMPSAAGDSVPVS
`GGGAGUUCUACAGUCCGACGAUCAAACUCAUCCUUAAAGGGGUCAUACUGCUGAUUGUGGACAAAGCCUUAGAAGAGCCAAAGUACCGCUCGCUGUAUGCUCAGCUAUGUCUGCGAUUGGCAGAAGAUGCACCAAACUUUGAUCAACAGAGGAUUGAGCAUCA` has a bound/input enrichment of 0.144 ratio.
For `GGGAGUUCUACAGUCCGACGAUCUGAGCGUCGGCGCCGGGGUUCGGUGGCCUCUAGUGAGAUCUGGAGGAUCCAAGGAUUCUGCCGCUACAAUGUUGUCAAGACUUUUUCGAAUGCAUGGCCUCUUUGUGGCCUCCCAUCCCUCAACAGAGGAUUGAGCAUCA`, the bound/input enrichment was 0.088 ratio.
For `GGGAGUUCUACAGUCCGACGAUCCAGAAACUGGAAGAGAUGGUCACCCGCUUAGAUCAAGAAGUAGCUGAAGUUGAUAAAAACACCGAACUUUUGAAAAAGAAGGAUGAAGAACUAAGUUCUGCUCUGGAGAAAAUGGAAAAUCAACAGAGGAUUGAGCAUCA`, the bound/input enrichment was 1.61 ratio.

Sample 2
Target: Interferon regulatory factor 5, full length, phosphomimetic (IRF5, Homo sapiens, UniProt Q13568-2, residues 1-514, K96S/S451D/S453D/S456D/S462D)
Method: protein-binding microarray
Form: double-stranded DNA, one strand shown
Medium: in vitro
Tested at: 250 nM
Setting: 60-bp whole probe
Together with: salmon DNA 0.4 mg/ml
Baseline: random background probes
Reading: higher = stronger binding
For `GCCTAGCACGACGGTAGCGGGACTGGGGACGTGCTAGTCTTGATTCGCTTGACGCTGCTG`, the log fluorescence was -0.251 z-score.
With `GCCTAGCACGACGGACTCGGTATCGGGACGTGCTAGGTCTTGATTCGCTTGACGCTGCTG` the log fluorescence was 0.559 z-score.
With `GCCTAGCACTTCGCTTTCTTTACCACATTGTGCTAGGTCTTGATTCGCTTGACGCTGCTG` the log fluorescence was 2.25 z-score.
The log fluorescence of `GCCTAGCACTTAGGACTGGGTTCCGGTTAGTGCTAGGTCTTGATTCGCTTGACGCTGCTG` is reported as 0.0985 z-score.

Sample 3
Target: Histone acetyltransferase KAT6A, winged helix 1, GST fusion (KAT6A, Homo sapiens, UniProt Q92794, residues 1-85)
Method: protein binding microarray
Form: double-stranded DNA, one strand shown
Medium: in vitro
Tested at: not given
Setting: 8-mer, flanks averaged, mean of 2 arrays, mostly near background
Baseline: not given
Reading: higher = stronger binding
Target sequence (chain): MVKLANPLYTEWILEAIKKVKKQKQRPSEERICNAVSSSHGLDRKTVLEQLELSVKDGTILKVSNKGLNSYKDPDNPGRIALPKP
For `AAAGAACT`, the E-score was -0.154.
The E-score of `AGAGGAAT` is reported as -0.256.
With `ACCGGACG` the E-score was 0.271.
The E-score of `CGACGCTC` is reported as 0.314.
`CTGGATGC` has an E-score of -0.0395.

Further values, each from its own experiment
The fold induction of `PhoQ, residues 284 288 289 292 302 303 ASHLAV` is reported as 2.73 (PhoP, residues 12 14 15 18 19 LWHVM (Escherichia coli, UniProt P23836); Sort-seq, measured: YFP reporter; E. coli; PhoQ-PhoP variant library, together with: 10 µM Mg2+; baseline: high Mg2+ state, higher = stronger signaling).

For quick reference, copied from above (sample 3):
For `AAAGAACT`, the E-score was -0.154.
